Assay results collected from several papers.
Each line is one published result; not all experiments were run side by side. ± gives the spread as reported. Converted amounts (≈) assume the structure as drawn.

CCCC[C@H](NC(=O)CNC(=O)CNC(=O)CN1CCN(CC(=O)O)CCN(CC(=O)O)CC1)C(=O)N[C@H]1CC(=O)NCCCC[C@@H](C(N)=O)NC(=O)[C@H](Cc2c[nH]c3ccccc23)NC(=O)[C@H](CCCNC(=N)N)NC(=O)[C@@H](Cc2ccccc2)NC(=O)[C@H](Cc2c[nH]cn2)NC1=O [gallium-67 labelled] — tissue uptake (female C57 mice, B16/F1 melanoma, muscle; intravenous, 0.037 MBq, 24 h): 0.99 ± 0.56 %ID/g
CC(=O)NC1CC=C(c2cc3c(Nc4cc5ncsc5cc4F)ncnc3s2)CC1 (racemic) — half-life (metabolic stability; human, liver microsomes): > 120 min
COCC1CN(C2CCN(c3cc(OC)c(Nc4ncc(Br)c(Nc5ccc6c(c5P(C)(C)=O)OCCO6)n4)cc3C)CC2)C1 — grade ≥3 treatment-related proteinuria (human patients; oral, dose not given): 3.7%
NCC(=O)N1CCC[C@H]1C(=O)N1C[C@H](O)C[C@H]1C(=O)O — log β (25 °C, MAH complex, ionic strength 0.15, together with: Fe(III)): 22.5
COc1cc(OC)cc(C2=C3C(C)=C(I)C(/C=C/c4c[nH]c5ccccc45)=[N+]3[B-](F)(F)n3c(/C=C/c4c[nH]c5ccccc45)c(I)c(C)c32)c1 — absorption maximum (dichloromethane): 702 nm
[11CH3]c1ccc2nc(C3CCC3)n(-c3ccc4[nH]ncc4c3)c2n1 — absorbed radiation dose (human female, breasts; extrapolated from mouse biodistribution): 2.5 µSv/MBq
CCCC(CCC)NC(=O)c1ccc(O)c(O)c1 — AUC(0-last) ratio (female Sprague-Dawley rats, plasma; oral, 50 mg/kg of parent drug; baseline: 50 over 20 mg/kg dose): 3.47
Cc1cc2c(cc1C1(c3ncc(C(=O)O)cn3)CC1)C(C)(C)CCC2(C)C — blood cholesterol (Sprague-Dawley rat, male; oral, 100 mg/kg, 1 h, sesame oil vehicle): 99 ± 7.5 mg/dL
N=C(N)NCCC[C@@H]1NC(=O)[C@H](Cc2c[nH]c3ccccc23)NC(=O)[C@@H](CC2CCCCC2)NC(=O)[C@@H]2CCCN2C(=O)[C@@H](NC(=O)CCc2ccccc2)CCCNC1=O — elimination half-life (C57BL/6J mice, plasma; intravenous, 1 mg/kg): 4.09 min
C[C@H](NC(=O)COC(=O)[C@H](C)NC(=O)CO)C(=O)O — depolymerization half-life (water; pH 5, 65 °C): 49.2 min
COCCOCCOCCOCCOCCOCCOCCOCCOCCOCCOCCOCCNC(=O)CCc1ccc(N(c2ccc(CCC(=O)NCCOCCOCCOCCOCCOCCOCCOCCOCCOCCOCCOCCOC)cc2)c2ccc(-c3c4c(c(-c5ccc(N(c6ccc(CCC(=O)NCCOCCOCCOCCOCCOCCOCCOCCOCCOCCOCCOCCOC)cc6)c6ccc(CCC(=O)NCCOCCOCCOCCOCCOCCOCCOCCOCCOCCOCCOCCOC)cc6)cc5)c5nsnc35)N=S=N4)cc2)cc1 — faecal excretion (KM mice, female, faeces; intravenous, dose not given, 24 h; baseline: dose): ~11%
COc1cc(NC(C)=O)c2c(c1O)-c1c(OC)c(OC)cc3c1C(C2)N(C)CC3 (stereo not drawn) — remaining compound (rat liver homogenate; 100 µg/mL, 40 d, -20 °C, long-term storage): 90.3 ± 3.2%
C[Si](C)(C[C@@H](CN)CC(=O)O)C1CC1 — performance time (neuromuscular coordination; Wistar rat male; oral, 100 mg/kg, 3 h): 180 s
CC(C)C[C@H](NC(=O)C[C@H](O)[C@H](CC(C)C)NC(=O)[C@H](Cc1c[nH]cn1)NC(=O)CNC(=O)[C@@H](NC(=O)[C@H](C)NC(=O)[C@H](Cc1c[nH]c2ccccc12)NC(=O)[C@H](CCC(N)=O)NC(=O)[C@@H](Cc1ccccc1)NC(=O)CCNC(=O)CCNC(=O)CN1CCN(CC(=O)O)CCN(CC(=O)O)CCN(CC(=O)O)CC1)C(C)C)C(N)=O [lutetium-177 labelled] — absorbed dose (MIRD; mouse PC-3 xenograft, pancreas; intravenous, 50 MBq, with PA): 3.1 Gy
CCCC[C@@H]1NC(=O)[C@@H](NC(=O)[C@H](CCC(=O)O)NC(=O)CNC(=O)CN2CCN(CC(=O)O)CCN(CC(=O)O)CCN(CC(=O)O)CC2)CCCCNC(=O)C[C@@H](C(N)=O)NC(=O)[C@H](C(C)C)NC(=O)[C@@H]2CCCN2C(=O)[C@H](CCCNC(=N)N)NC(=O)CNC(=O)[C@H](Cc2c[nH]c3ccccc23)NC(=O)[C@H](CCCNC(=N)N)NC(=O)[C@@H](Cc2ccccc2)NC(=O)[C@H](Cc2c[nH]cn2)NC(=O)[C@H](CCC(=O)O)NC1=O [gallium-67 labelled] — tumour to muscle ratio (C57 mice with B16/F1 melanoma; intravenous, 0.037 MBq/mouse, 0.5 h; baseline: tumour over muscle): 18.7
CC1=CC(C)=[O+][Pt-2]([NH3+])([NH3+])[O]1.CC1=CC(C)=[O+][Pt-2]([NH3+])([NH3+])[O]1.O=S(=O)([O-])[O-] (stereo not drawn) — chemical stability (1H NMR; water; up to 25 d, 37 °C): no effect
C#CC(C)NC(=O)C(CC(C)(C)F)NC(c1ccc(-c2ccc(S(C)(=O)=O)cc2)cc1)C(F)(F)F (stereo not drawn) — GSH adduct formation (LC-MS UV trace; aqueous buffer; 23 h, pH 7.5, 37 °C, together with: GSH 5 mM): 2%
CN1CCC[C@]1(C)/C=C/S(=O)(=O)NC(=O)Nc1c2c(cc3c1CCC3)CCC2 — tolerability (human; oral, up to 100 mg twice daily, 14 days): not toxic
C[C@H]1C[C@@H](Oc2cccc(F)n2)CCN1Cc1cnc(N[11C](C)=O)s1 — radioligand stability (human brain homogenate; at least 30 min, room temperature): 99.2%
Oc1ccc2ccccc2c1/N=N/c1ccc(/N=N/c2ccccc2)cc1 — measured concentration (rat whole blood extract; 0.5 µg/L, 30 days, -20 °C, long-term storage): 0.51 µg/L
COc1ccc2cc(-c3ccc(-c4ccc(C)cn4)nc3)oc2c1 — radiative decay rate constant (TCSPC; hexanes): 0.75 ns⁻¹
Cn1c(=O)oc2ccc(-c3ccc(CC(C#N)NC(=O)C4CNCCCO4)c(F)c3)cc21 (stereo not drawn) — subjects with TRAE (refers to: alanine aminotransferase increased; human; 60 mg single dose, fasted): 0%
COC(=O)c1ccc(-c2cn(Cc3cc(Cl)ccc3O[11CH3])nn2)cc1 — distribution volume (PET, two-tissue compartment model; rhesus monkey, brain Midbrain; dose not given): 0.719 mL/cm³
C=C(c1cc(F)c(C(=O)O)c(F)c1)c1cc2c(cc1C)C(C)(C)CCC2(C)C — blood cholesterol (Sprague-Dawley rat, male; oral, 100 mg/kg, 3 h, sesame oil vehicle): 95 ± 16.5 mg/dL
O=c1nc(NO)ccn1[C@@H]1O[C@H](CO)[C@@H](O)[C@H]1O — mRNA level (RT-PCR, refers to: CYP3A1; normal rat, liver; oral, 80 mg/kg twice daily, 5 days; baseline: untreated rats): 0.2 fold
CC[C@H](C)[C@H](NC(=O)[C@H](N)Cc1ccc(O)cc1)C(=O)N[C@H]1CSSC[C@@H](C(=O)N(C)[C@H](C(N)=O)[C@@H](C)CC)NC(=O)[C@H](CCCNC(=N)N)NC(=O)[C@H](Cc2c[nH]cn2)NC(=O)[C@H](C)NC(=O)CN(C)C(=O)[C@H](Cc2c[nH]c3ccccc23)NC(=O)[C@H](CC(=O)O)NC(=O)[C@H](CCC(N)=O)NC(=O)[C@H](Cc2cn(C)c3ccccc23)NC(=O)[C@H](C(C)C)NC1=O — recovery (UPLC-ESI-MS; cynomolgus monkey plasma; 0.36 µg/mL, 24 h, 25 °C, bench-top after SPE): 98.4 ± 0.5%
CCC/C(=C\C1=C(C(F)(F)F)C(=O)c2ccccc2C1=O)C(=O)N(CC)CC — thermodynamic solubility (aqueous buffer; pH 6.8): 9 µg/mL (≈ 22.9 µM)
F[P-](F)(F)(F)(F)F.O=C(CCC(=O)[c-]1cccc1)NCCN(CC(=O)Nc1ccc(C#CCN(Cc2ccccn2)Cc2ccccn2)cc1)C(=O)CCc1cn(Cc2ccccc2)nn1.[C-]#[O+].[C-]#[O+].[C-]#[O+].[C-]#[O+].[C-]#[O+].[C-]#[O+].[Mn+].[Re+] — maximum solubility (DMEM; 10 min, room temperature): 50 µg/mL
NC[C@@H](C(=O)Nc1ccc(-c2cn[nH]c2)cc1)c1ccccc1 — total ocular irritation score (OECD 405 test; New Zealand White rabbits; topical, 0.1 %, day 1, 1 h; direction not given): 1
O=C([O-])CN1CCN(CC(=O)[O-])CCN(CC(=O)NCC2CCC(C(=O)NC(Cc3ccc4ccccc4c3)C(=O)NCCCCC(NC(=O)NC(CCC(=O)O)C(=O)O)C(=O)O)CC2)CCN(CC(=O)[O-])CC1.[44Sc+3] (stereo not drawn) — intact complex (transmetallation stability; 1 h, 37 °C, together with: Fe3+ 10 mM): 98 ± 0.8%
CCCC[C@H](NC(C)=O)C(=O)N[C@H]1CC(=O)NCCCC[C@@H](C(=O)N[C@@H](C(=O)N2CCC[C@@H]2C(N)=O)C(C)C)NC(=O)[C@H](Cc2c[nH]c3ccccc23)NC(=O)[C@H](CCCN=C(N)N)NC(=O)[C@@H](Cc2ccc3ccccc3c2)NC(=O)[C@@H]2CCCN2C1=O — volume of distribution (Beagle dog, both sexes, plasma; subcutaneous, once daily, 2.25 mg/kg, day 5): 2410 ± 327 mL
Cc1noc(C)c1Cn1cc(N2C(=O)CN(Cc3cccc(O[C@@H]4O[C@H](C(=O)O)[C@@H](O)[C@H](O)[C@H]4O)c3)C2=O)cn1 — AUC(0-last) (rat Sprague-Dawley male, plasma; oral, 30 mg/kg of parent drug): 22900 ng·h/mL
Cc1ccc(OCC(=O)N(Cc2cccs2)c2ccn[nH]2)cc1 — remaining compound (Sprague-Dawley rat, liver microsomes; 10 µM, 0 min): > 98%
